# Assay results collected from several papers.
# ± marks the error that the study gave.
Structure (SMILES),target or system,test,test system,setting,scale,quantity,value
Cc1ccc(C(=O)N(CCCN)C(c2nc3snc(C)c3c(=O)n2Cc2ccccc2)C(C)C)cc1 (stereo not shown),,,human patients,"intravenous, 16 mg/day",,grade ≥3 dysphagia patients,0%
Cc1cc(-c2nccc3c2ccn3CC(=O)Nc2ccc(-c3cnccn3)cn2)ccn1,,,human,"SAD part, single 7 mg dose",,subjects with any serious TEAE,0%
O=C(c1nc2n(n1)[C@H](c1ccccc1)C[C@@H]2F)C1CC1,,,"human, fasted","oral, 75 mg single dose, mean",,urinary excretion Ae(0-72 h),0.142 mg
C[C@@H](Nc1cc(F)cc(F)c1)c1cc(C(=O)N(C)C)cc2c(=O)cc(N3CCOCC3)oc12,,,"human, plasma","oral, 240 mg, day 1 single dose",,Cmax geometric mean,787 ng/mL
OC[C@H]1O[C@@H](c2ccc(Cl)c(Cc3ccc(O[C@H]4CCOC4)cc3)c2)[C@H](O)[C@@H](O)[C@@H]1O,,,"Japanese type 1 diabetes patients, blood","25 mg, day 28",baseline: baseline,change in Calcium,-0.1 mg/dL
NC1(C(=O)N[C@@H](CCO)c2ccc(Cl)cc2)CCN(c2nc[nH]c3nccc2-3)CC1,,,metastatic CRPC patients,"400 mg b.i.d., any grade, treatment-related, together with: enzalutamide 160 mg daily",,incidence of Dyspepsia,28.6%
CCc1nc(C(N)=O)c(Nc2ccc(N3CCC(N4CCN(C)CC4)CC3)c(OC)c2)nc1NC1CCOCC1,,,"Japanese patients, plasma","oral, 200 mg, cycle 0 day -2, single dose, mean",,AUC(0-24),3600 ng·h/mL
CCc1cc(C(=O)NC)c2nccc(N3CCc4c(cc(Cn5ccnc5)cc4-c4cn(C)nc4C(F)(F)F)C3=O)c2c1,,,Sprague Dawley rats,"oral, 50 mg/kg once daily, 7 days",baseline: vehicle,serum MCHC change,0.33%
CC(C)(C)c1cc(C(C)(C)C)c(NC(=O)c2c[nH]c3ccccc3c2=O)cc1O,,,FaSSIF,literature solubility over dose,,dose-adjusted solubility,0.000353 mL⁻¹
CC(C)[C@@H](CN1CC[C@@](C)(c2cccc(O)c2)[C@@H](C)C1)NC(=O)[C@H]1Cc2ccc(O)cc2CN1,,,"Sprague-Dawley rat, brain","intraperitoneal, 5 mg/kg",,AUCtotal,10100 ng·h/g
Cn1cc(Nc2nccc(-c3ccc4c(c3)CN(C3COC3)CC[C@H]4NC(=O)c3cn(C(C)(C)C)nn3)n2)cn1,,,"human, whole blood","150 mg twice daily, day 7",baseline: pre-dose baseline,naive B cell count change,74.3%
COc1c(N2C[C@@H]3CCCN[C@@H]3C2)c(F)cc2c(=O)c(C(=O)O)cn(C3CC3)c12,,,healthy volunteers,"oral, 400 mg single dose, day 5, 12.00 h",,QTcI change from baseline,1.3 ms
C=CCN1CC(=O)N2[C@@H](Cc3ccc(O)cc3F)C(=O)N(Cc3cccc(N4CC(N5CCN(CC)CC5)C4)n3)C[C@@H]2N1C(=O)NCc1ccccc1,,,advanced solid tumour patients,"oral, 45 mg twice daily, grade ≥3, dose-escalation",,treatment-related AST increased,0%
CC[C@H](C)[C@H](N)C(=O)N[C@H]1CSSC[C@@H](C(=O)N[C@H](C(N)=O)[C@@H](C)O)NC(=O)[C@H](CCCNC(=N)N)NC(=O)[C@H](Cc2c[nH]cn2)NC(=O)[C@H](Cc2c[nH]cn2)NC(=O)CNC(=O)[C@H](Cc2c[nH]c3ccccc23)NC(=O)[C@H](CC(=O)O)NC(=O)[C@H](CCC(N)=O)NC(=O)[C@H](C(C)C)NC(=O)[C@H](C(C)C)NC1=O,,"isocratic RP-HPLC, C18","32% acetonitrile, phosphate pH 7.4, 1% TFA",25 °C,,retention factor,0.363 ± 0.02
CCN1CCN(Cc2ccc(NC(=O)c3ccc(C)c(NC(=O)c4cncc(-c5cccs5)c4)c3)cc2C(F)(F)F)CC1,,LC-MS/MS,"C57BL/6 mouse, plasma","intraperitoneal, 10 mg/kg single dose, 4 h",,mean plasma concentration,90 ng/mL
O=C1NCCc2nc(OCc3cccc(F)c3)ccc21,,item: tail erection,Sprague-Dawley rat male,"oral, 100 mg/kg, 30 min",direction not given,Irwin test score,0
CNc1ccc(-c2nc3ccc(O)cc3s2)cc1 [carbon-11 labelled],,ex vivo biodistribution,"APP/PS1 mouse, AD model, thalamus","intravenous, 30 min",,SUV,0.16 ± 0.08
CC[C@H](C)[C@H](NC(=O)CN)C(=O)N[C@@H](CCCCN)C(=O)N[C@@H](CCCCN)C(=O)N[C@@H](Cc1ccccc1)C(=O)N[C@@H](CC(C)C)C(=O)N[C@@H](CCCCN)C(=O)N[C@@H](CO)C(=O)N[C@@H](C)C(=O)N[C@@H](CCCCN)C(=O)N[C@@H](CCCCN)C(=O)N[C@@]1(C)CCCC=CCCC[C@@](C)(C(=O)N[C@@H](CCCCN)C(N)=O)NC(=O)[C@H](C)NC(=O)[C@H](CCCCN)NC(=O)[C@H](C(C)C)NC1=O,,UPLC,TFA water/acetonitrile gradient,,longer = more hydrophobic,retention time,2.09 min
O=C(O)CCC(=O)O.[2H]C([2H])([2H])Oc1cc(C)c2[nH]ccc2c1CN1CC[C@@H](C2CC2)C[C@H]1c1ccc(C(=O)O)cc1,,multiple ascending dose,healthy Chinese subjects,300 mg once daily,,subjects with elevated triglycerides TEAE,12.5%
CCOCc1nc(O)c(-c2nnc(Cc3ccc(Cl)cn3)o2)c(O)c1-c1c(OC)cccc1OC,,,"rat, anaesthetised, cannulated, plasma","intravenous infusion, 1 µg/kg/min, 5 min",,plasma concentration,54 nM
COc1ccc(C(O)COc2ccc(-c3csc(-c4ccc(OCC(O)c5ccc(OC)c(OC)c5)cc4)n3)cc2)cc1OC (stereo not shown),,,"mouse C57BL/6J, plasma","intravenous, 3 mg/kg",,tlast,24 h
Cc1noc(C)c1-c1cc(C(O)(c2ccccn2)c2ccccn2)c2nc(C3CC3)[nH]c2c1,,,"human patients, fasted, plasma","oral, 2 mg once daily, cycle 1 day 8",,Ctau,180 ng/mL
CC(=O)N(C)[C@H]1CCN(C(=O)c2cnc3c(c2)C[C@](C)(c2ccc(F)cc2)N3)C1,,item: eyelid inflammation,human,"oral, 15 mg once daily",,adverse event duration,6 days
CN1CCCC1CCNS(=O)(=O)c1ccc2c(c1)CN(CC1CCCCC1)CC2 (stereo not shown),,,"mouse, plasma","oral, 10 mg/kg",,Tlast,24 h
O=C(Nc1ccc(OC(F)(F)Cl)cc1)c1cnc(N2CC[C@@H](O)C2)c(-c2ccn[nH]2)c1,,"per laboratory record, item: platelet decrease",human patients,"oral, dose not given, dose-finding study",,grade ≥3 event rate,4.4%
Cc1ccc([C@@H]2O[C@H](CO)[C@@H](O)[C@H](O)[C@H]2O)cc1Cc1ccc(-c2ccc(F)cc2)s1,,,Japanese type 2 diabetes patients,"400 mg, day 4, 24 h urine collection",baseline: baseline,urinary sodium excretion change,1.85 mEq
CCn1c(=O)c(-c2cc(NC(=O)Nc3ccccc3)c(F)cc2Br)cc2cnc(NC)cc21,,item: gastrointestinal disorders,"human, severe hepatic impairment","oral, 50 mg single dose",,participants with drug-related TEAE,0%
O=C1Nc2ccc(Cl)cc2[C@@](C#CC2CC2)(C(F)(F)F)O1,,,"human, plasma","oral, 600 mg, day 29, mean",,trough plasma concentration,2820 ng/mL
CC(C)(C(=O)N1CCOc2c(C#N)cncc2C1)C(F)F,,item: Arthralgia,human,"oral, 20 mg once daily, 14 days, multiple ascending dose",,subjects with adverse event,0%
Cl.[2H]C([2H])([2H])CC(=O)c1cnc(NC(=O)C2CC2)cc1Nc1cccc(-c2ncn(C([2H])([2H])[2H])n2)c1OC,,,"human, non-fasted","oral, 60 mg once daily, day 14, multiple dose, tablet, geometric mean",,terminal elimination rate constant,2.03e-05 s⁻¹
Cc1ccc(Sc2ccccc2N2CCNCC2)c(C)c1,,item: ureteric calculus,healthy adult men,"oral, 5 mg daily, 12 days",,participants with TEAE,0%
C=CC(=O)Nc1cc(Nc2nccc(Nc3cc(Cl)c(F)cc3C(C)(C)O)n2)c(OC)cc1N1CC[C@@H](N(C)C)C1,,two-compartment PK model,mouse,,,intercompartmental clearance,0.42 L/h
CC(C(=O)NCC(=O)NCC(CNC(=O)CNC(=O)C(C)N1CCN(CC(=O)[O-])CCN(CC(=O)[O-])CCN(CC(=O)[O-])CC1)(CNC(=O)CNC(=O)C(C)N1CCN(CC(=O)[O-])CCN(CC(=O)[O-])CCN(CC(=O)[O-])CC1)CNC(=O)CNC(=O)C(C)N1CCN(CC(=O)[O-])CCN(CC(=O)[O-])CCN(CC(=O)[O-])CC1)N1CCN(CC(=O)[O-])CCN(CC(=O)[O-])CCN(CC(=O)[O-])CC1.[Gd+3].[Gd+3].[Gd+3].[Gd+3] (stereo not shown),,ICP-MS,"cynomolgus monkey, feces",4 days post-injection,baseline: dose,cumulative fecal excretion,0.3%
c1cc(CN2CCOCC2)cc(Nc2nccc(NCCc3cnc[nH]3)n2)c1,,PAMPA,PBS,"5 h, pH 7.4",,effective permeability,0.166 ×10⁻⁶ cm/s
CCCCCN1C[C@H](O)[C@@H](O)[C@H](O)[C@@H]1CO,,LC-MS/MS,"Hexb-/- mice, female, brain",30 mg/kg/day,,mean brain concentration,42 ng/g
N[C@@H](C[18F])C(=O)O,,radio-HPLC,saline,3 h,,radiochemical purity,> 98%
OCc1nc2ccc(NCc3ccc(C(F)(F)F)cc3)cc2[nH]1,,,"Balb/c mice male, plasma","intravenous, 1 mg/kg",,clearance,61 ± 6.67 mL/min/kg
C=CC[C@@H]1/C=C(\C)C[C@H](C)C[C@H](OC)[C@H]2O[C@@](O)(C(=O)C(=O)N3CCCC[C@H]3C(=O)O[C@H](/C(C)=C/[C@@H]3CC[C@@H](O)[C@H](OC)C3)[C@H](C)[C@@H](O)CC1=O)[C@H](C)C[C@@H]2OC,,,male Wistar Kyoto rat,"intraperitoneal, 0.5 mg/kg/day, day 18",baseline: vehicle,fractional chloride excretion increase,~1.5 fold
Cc1cc(Nc2ncnc3ccc(NC4=NC(C)(C)CO4)cc23)ccc1Oc1ccn2ncnc2c1,,,"human, plasma","oral, 300 mg, day 1, single dose alone",,"AUC(0-last), geometric mean",2000 ng·h/mL
CCn1cc(C(=O)N2CCOCC2)c(=O)c2cc(NC3Cc4ccccc4C3)cnc21,,,"human male, fed, plasma","oral, 900 mg twice daily, day 1, tablet, arithmetic mean",,AUC(0-12h),23100 ng·h/mL
COc1cc(Nc2ncc3c(n2)-c2ccc(Cl)cc2C(c2c(F)cccc2OC)=NC3)ccc1C(=O)O,,,"human patients, plasma","oral, 40 mg twice daily, day 7, together with: pembrolizumab",,AUC(0-12h),9740 ng·h/mL
O=C(Nc1nc2cccc(-c3ccc(CN4CCS(=O)(=O)CC4)cc3)n2n1)C1CC1,,item: ankle fracture,human rheumatoid arthritis patients,"oral, 300 mg once daily, 4 weeks, regardless of relatedness",,treatment-emergent adverse events,5%
C[C@@H]1COCCN1c1cc(C2([S@](C)(=N)=O)CC2)nc(-c2cc[nH]c3nccc2-3)n1,,,Japanese advanced solid tumour patients,"oral, 160 mg twice daily, any grade",,Rash incidence,16.7%
O=C(O)c1cc(O)c2c(c1)C(=O)c1cccc(O[C@@H]3O[C@H](CO)[C@@H](O)[C@H](O)[C@H]3O)c1C2=O,HK-2 co-cultured with HepaRG,MTT,,"66.67 µM, 48 h",baseline: untreated control,cell viability,72.4 ± 2.57%
CCc1ccc(-c2ccc(-c3cc(F)c(F)c(F)c3)c(F)c2)cc1,,,"rat, fetus","5000 ng/mL in perfusate, high dose, mixture of 21 LCMs",,fetal accumulation,0.651 ± 0.602 ng/g
Cc1nc2cccc(OCC(C)(C)C(=O)NC(C)C)c2c(N)c1C(=O)O,,,"male Swiss albino CD-1 mouse, bone marrow","oral, 2000 mg/kg, 48 h",,micronucleated polychromatic erythrocytes,0.09%
C=CC[C@@]1(C)NC(=O)CNC(=O)[C@H](Cc2c[nH]c3ccccc23)NC(=O)[C@H](CC(=O)O)NC(=O)[C@H](CCC(N)=O)NC(=O)[C@H](Cc2c[nH]c3ccccc23)NC(=O)[C@H](C(C)C)NC(=O)[C@@H](NC(=O)[C@@H](NC(C)=O)[C@@H](C)CC)CSSC[C@@H](C(=O)N[C@H](C(N)=O)[C@@H](C)O)NC(=O)[C@H](CCCNC(=N)N)NC(=O)[C@H](Cc2c[nH]cn2)NC1=O,,"RP-HPLC, C18",28% acetonitrile isocratic,pH 7.4,,retention factor,4.106 ± 0.007
C=CC(=O)Nc1cc(Nc2nccc(-c3cn(C4CC4)c4ccccc34)n2)c(OC)cc1N(C)CCN(C)C,,,"BALB/c nude mice, LU0387 xenograft, blood","oral, 40 mg/kg",,RDW-CV,18.3 ± 0.259%
CCN1/C(=C/C(C)=O)Sc2ccc(F)cc21,,,cynomolgus monkey,"oral, 100 mg/kg, 2 h post-dose",,PR interval,90 ± 3 ms

# For quick reference, copied from above:
Structure (SMILES),target or system,test,test system,setting,scale,quantity,value
N[C@@H](C[18F])C(=O)O,,radio-HPLC,saline,3 h,,radiochemical purity,> 98%
OCc1nc2ccc(NCc3ccc(C(F)(F)F)cc3)cc2[nH]1,,,"Balb/c mice male, plasma","intravenous, 1 mg/kg",,clearance,61 ± 6.67 mL/min/kg
C=CC[C@@H]1/C=C(\C)C[C@H](C)C[C@H](OC)[C@H]2O[C@@](O)(C(=O)C(=O)N3CCCC[C@H]3C(=O)O[C@H](/C(C)=C/[C@@H]3CC[C@@H](O)[C@H](OC)C3)[C@H](C)[C@@H](O)CC1=O)[C@H](C)C[C@@H]2OC,,,male Wistar Kyoto rat,"intraperitoneal, 0.5 mg/kg/day, day 18",baseline: vehicle,fractional chloride excretion increase,~1.5 fold
Cc1cc(Nc2ncnc3ccc(NC4=NC(C)(C)CO4)cc23)ccc1Oc1ccn2ncnc2c1,,,"human, plasma","oral, 300 mg, day 1, single dose alone",,"AUC(0-last), geometric mean",2000 ng·h/mL
CCn1cc(C(=O)N2CCOCC2)c(=O)c2cc(NC3Cc4ccccc4C3)cnc21,,,"human male, fed, plasma","oral, 900 mg twice daily, day 1, tablet, arithmetic mean",,AUC(0-12h),23100 ng·h/mL
